Published values from different studies.
Each line is one published result; not all experiments were run side by side. ± gives the spread as reported.
B1: STAU1 A375E/R376A/L472S/S473E (Homo sapiens, UniProt O95793-2); sequence looked up; chain MKLGKKPMYKPVDPYSRMQSTYNYNMRGGAYPPRYFYPFPVPPLLYQVELSVGGQQFNGKGKTRQAAKHDAAAKALRILQNEPLPERLEVNGRESEEENLNKSEISQVFEIALKRNLPVNFEVARESGPPHMKNFVTKVSVGEFVGEGEGKSKKISKKNAAIAVLEELKKLPPLPAVERVKPRIKKKTKPIVKPQTSPEYGQGINPISRLAQIQQAKKEKEPEYTLLTERGLPRRREFVMQVKVGNHTAEGTGTNKKVAKRNAAENMLEILGFKVPQAQPTKPALKSEEKTPIKKPGDGRKVTFFEPGSGDENGTSNKEDEFRMPYLSHQQLPAGILPMVPEVAQAVGVSQGHHTKDFTRAAPNPAKATVTAMIEAELLYGGTSPTAETILKNNISSGHVPHGPLTRPSEQLDYLSRVQGFQVEYKDFPKNNKNEFVSLINCSSQPPLISHGIGKDVESCHDMAALNILKLSEELDQQSTEMPRTGNGPMSVCGRC
B2: Mei5/Sae3 (Saccharomyces cerevisiae); chain 1 MHNQEEWLDKDKTLVNEEENTCINHSYTKKDTNNYRVGKSGIKDLKKPTNQKEIAIKNRELTKQLTLLRQENNHLQQACKILSENKIIENRKSIEKWRTICEMELSFILNSTLIKINRMGGYKDFLEKEMEAKKRRLEYQIDNGMEDQICEIKESDDFRQLSEVEKQEWESQMNEQLKELEKKKIAELEKLNKVLHDSEGKDFGMAELCTRLKLDYSLIFPQ; chain 2 MNYLETQLNKKQKQIQEYESMNGNLIKMFEQLSKEKKNDETPKKISSTYIKELKEYNELRDAGLRLAQIIADEKQCKIKDVFEEIGYSMKD
B3: UGT1A9 (Homo sapiens, UniProt O60656); chain GKLLVVPMDGSHWFTMRSVVEKLILRGHEVVVVMPEVSWQLGRSLNCTVKTYSTSYTLEDLDREFKAFAHAQWKAQVRSIYSLLMGSYNDIFDLFFSNCRSLFKDKKLVEYLKESSFDAVFLDPFDNCGLIVAKYFSLPSVVFARGILCHYLEEGAQCPAPLSYVPRILLGFSDAMTFKERVRNHIMHLEEHLLCHRFFKNALEIASEILQTPVTEYDLYSHTSIWLLRTDFVLDYPKPVMPNMIFIGGINCHQGKPLPMEFEAYINASGEHGIVVFSLGSMVSEIPEKKAMAIADALGKIPQTVLWRYTGTRPSNLANNTILVKWLPQNDLLGHPMTRAFITHAGSHGVYESICNGVPMVMMPLFGDQMDNAKRMETKGAGVTLNVLEMTSEDLENALKAVINDKSYKENIMRLSSLHKDRPVEPLDLAVFWVEFVMRHKGAPHLRPAAHDLTWYQYHSLDVIGFLLAVVLTVAFITFKCCAYGYRKCLGKKGRVKKAHKSKTH
B4: CSF1 33-496 (Homo sapiens, UniProt P09603); sequence looked up; chain EEVSEYCSHMIGSGHLQSLQRLIDSQMETSCQITFEFVDQEQLKDPVCYLKKAFLLVQDIMEDTMRFRDNTPNAIAIVQLQELSLRLKSCFTKDYEEHDKACVRTFYETPLQLLEKVKNVFNETKNLLDKDWNIFSKNCNNSFAECSSQDVVTKPDCNCLYPKAIPSSDPASVSPHQPLAPSMAPVAGLTWEDSEGTEGSSLLPGEQPLHTVDPGSAKQRPPRSTCQSFEPPETPVVKDSTIGGSPQPRPSVGAFNPGMEDILDSAMGTNWVPEEASGEASEIPVPQGTELSPSRPGGGSMQTEPARPSNFLSASSPLPASAKGQQPADVTGTALPRVGPVRPTGQDWNHTPQKTDHPSALLRDPPEPGSPRISSLRPQGLSNPSTLSAQPQLSRSHSSGSVLPLGELEGRRSTRDRRSPAEPEGGPASEGAARPLPRFNSVPLTDTGHERQSEGSFSPQLQES
B5: Scn2a 1080-1203 (UniProt P04775); CK2-phosphorylated; sequence looked up; chain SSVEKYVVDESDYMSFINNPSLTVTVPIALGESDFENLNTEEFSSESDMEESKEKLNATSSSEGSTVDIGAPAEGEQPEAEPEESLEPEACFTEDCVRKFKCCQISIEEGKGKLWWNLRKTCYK
B6: MIF4GD R202A (Homo sapiens, UniProt A9UHW6); sequence looked up; chain MGEPSREEYKIQSFDAETQQLLKTALKDPGAVDLEKVANVIVDHSLQDCVFSKEAGRMCYAIIQAESKQAGQSVFRRGLLNRLQQEYQAREQLRARSLQGWVCYVTFICNIFDYLRVNNMPMMALVNPVYDCLFRLAQPDSLSKEEEVDCLVLQLHRVGEQLEKMNGQRMDELFVLIRDGFLLPTGLSSLAQLLLLEIIEFAAAGWKTTPAAHKYYYSEVSD
B7: recO (Bacillus subtilis, UniProt P42095); chain MLTKCEGIVLRTNDYGETNKIVTLLTREHGKIGVMARGAKKPNSRLSAVSQPFLYGSFLMQKTSGLGTLQQGEMILSMRGIREDLFLTAYAAYVAELVDRGTEEKKPNPYLFEFILESLKQLNEGTDPDVITFIVQMKMLGVMGLYPELNHCVHCKSQDGTFHFSVRDNGFICHRCFEKDPYRIPIKPQTARLLRLFYYFDLSRLGNVSLKEETKAELKQVIDLYYEEYSGLYLKSKRFLDQMESMKHLMGENKS
B8: CRYBB1 1-234 (Homo sapiens, UniProt P53674); sequence looked up; chain MSQAAKASASATVAVNPGPDTKGKGAPPAGTSPSPGTTLAPTTVPITSAKAAELPPGNYRLVVFELENFQGRRAEFSGECSNLADRGFDRVRSIIVSAGPWVAFEQSNFRGEMFILEKGEYPRWNTWSSSYRSDRLMSFRPIKMDAQEHKISLFEGANFKGNTIEIQGDDAPSLWVYGFSDRVGSVKVSSGTWVGYQYPGYRGYQYLLEPGDFRHWNEWGAFQPQMQSLRRLRD
Sequence of UniProt Q92900 (whole entry, looked up): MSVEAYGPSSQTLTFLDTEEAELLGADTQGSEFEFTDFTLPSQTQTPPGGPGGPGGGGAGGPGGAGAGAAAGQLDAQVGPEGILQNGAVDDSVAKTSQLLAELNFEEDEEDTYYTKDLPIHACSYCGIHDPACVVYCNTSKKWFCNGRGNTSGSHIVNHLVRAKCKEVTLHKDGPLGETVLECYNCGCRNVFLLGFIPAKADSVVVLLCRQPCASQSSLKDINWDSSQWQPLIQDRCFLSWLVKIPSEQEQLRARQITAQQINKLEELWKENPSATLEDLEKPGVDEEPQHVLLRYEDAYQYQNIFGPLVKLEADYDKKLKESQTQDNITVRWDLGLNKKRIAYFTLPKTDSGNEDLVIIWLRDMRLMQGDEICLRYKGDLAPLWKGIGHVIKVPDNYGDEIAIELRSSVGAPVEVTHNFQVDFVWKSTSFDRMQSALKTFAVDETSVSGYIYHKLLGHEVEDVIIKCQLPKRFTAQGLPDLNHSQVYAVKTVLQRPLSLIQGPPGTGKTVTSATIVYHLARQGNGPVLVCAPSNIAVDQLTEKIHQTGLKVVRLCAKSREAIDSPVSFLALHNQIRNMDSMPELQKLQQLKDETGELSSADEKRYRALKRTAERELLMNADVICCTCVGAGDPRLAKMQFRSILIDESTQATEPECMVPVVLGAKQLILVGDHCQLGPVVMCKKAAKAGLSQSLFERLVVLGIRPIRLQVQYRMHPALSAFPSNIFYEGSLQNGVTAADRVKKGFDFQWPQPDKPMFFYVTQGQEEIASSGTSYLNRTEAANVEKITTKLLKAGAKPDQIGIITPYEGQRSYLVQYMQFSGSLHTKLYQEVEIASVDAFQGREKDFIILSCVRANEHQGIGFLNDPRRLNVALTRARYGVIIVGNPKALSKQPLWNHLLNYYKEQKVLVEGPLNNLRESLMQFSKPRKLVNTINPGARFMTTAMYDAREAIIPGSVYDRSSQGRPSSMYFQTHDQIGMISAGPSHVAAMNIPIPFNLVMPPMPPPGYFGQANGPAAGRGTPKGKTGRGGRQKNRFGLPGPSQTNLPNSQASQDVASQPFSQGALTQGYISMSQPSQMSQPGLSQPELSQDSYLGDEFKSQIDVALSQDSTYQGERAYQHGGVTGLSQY
Sequence of UniProt Q99828 (whole entry, looked up): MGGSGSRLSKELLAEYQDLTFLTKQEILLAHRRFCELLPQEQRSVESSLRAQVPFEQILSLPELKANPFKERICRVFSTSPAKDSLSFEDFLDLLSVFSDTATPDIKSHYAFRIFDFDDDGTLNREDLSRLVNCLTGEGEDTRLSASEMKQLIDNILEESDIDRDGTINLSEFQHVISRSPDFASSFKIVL
Sequence of UniProt P59215 (whole entry, looked up): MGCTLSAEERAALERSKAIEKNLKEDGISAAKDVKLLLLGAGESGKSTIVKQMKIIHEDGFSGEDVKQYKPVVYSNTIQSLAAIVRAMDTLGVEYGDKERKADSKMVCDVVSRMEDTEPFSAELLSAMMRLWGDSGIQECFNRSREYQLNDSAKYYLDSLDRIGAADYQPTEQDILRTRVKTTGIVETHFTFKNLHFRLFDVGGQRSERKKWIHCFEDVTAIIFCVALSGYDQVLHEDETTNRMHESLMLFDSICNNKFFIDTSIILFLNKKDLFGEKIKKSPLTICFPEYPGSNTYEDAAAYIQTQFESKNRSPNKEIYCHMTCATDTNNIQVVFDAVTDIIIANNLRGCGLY
Sequence of UniProt P87048 (whole entry, unmodified, looked up): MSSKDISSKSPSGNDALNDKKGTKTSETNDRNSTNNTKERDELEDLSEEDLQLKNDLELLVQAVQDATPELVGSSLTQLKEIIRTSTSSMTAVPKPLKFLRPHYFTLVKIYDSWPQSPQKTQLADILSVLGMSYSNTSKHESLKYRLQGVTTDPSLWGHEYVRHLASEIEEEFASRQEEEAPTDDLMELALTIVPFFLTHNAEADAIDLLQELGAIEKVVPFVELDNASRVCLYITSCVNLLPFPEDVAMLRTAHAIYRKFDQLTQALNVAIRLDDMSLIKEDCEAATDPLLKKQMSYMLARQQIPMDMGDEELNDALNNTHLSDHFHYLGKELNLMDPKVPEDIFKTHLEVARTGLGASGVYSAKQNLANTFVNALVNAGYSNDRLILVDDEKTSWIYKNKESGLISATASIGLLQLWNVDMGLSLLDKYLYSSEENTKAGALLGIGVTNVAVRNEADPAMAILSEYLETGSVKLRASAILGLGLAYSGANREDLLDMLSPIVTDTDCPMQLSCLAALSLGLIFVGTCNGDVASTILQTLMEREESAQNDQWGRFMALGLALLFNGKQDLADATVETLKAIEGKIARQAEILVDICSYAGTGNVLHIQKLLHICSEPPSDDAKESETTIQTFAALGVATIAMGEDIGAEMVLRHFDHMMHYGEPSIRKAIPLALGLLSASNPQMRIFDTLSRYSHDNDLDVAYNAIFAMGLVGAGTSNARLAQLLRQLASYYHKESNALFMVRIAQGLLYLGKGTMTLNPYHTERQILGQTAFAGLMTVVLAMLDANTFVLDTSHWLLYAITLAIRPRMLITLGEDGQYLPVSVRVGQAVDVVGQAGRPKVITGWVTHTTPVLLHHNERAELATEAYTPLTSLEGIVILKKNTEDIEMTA
Sequence of UniProt P0A6G7 (whole entry, looked up): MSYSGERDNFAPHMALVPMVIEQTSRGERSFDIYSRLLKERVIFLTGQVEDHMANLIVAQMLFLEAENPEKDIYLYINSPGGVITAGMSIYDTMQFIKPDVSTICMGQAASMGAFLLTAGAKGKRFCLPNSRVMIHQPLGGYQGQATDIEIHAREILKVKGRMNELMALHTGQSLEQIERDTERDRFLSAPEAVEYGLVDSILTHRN
Sequence of UniProt P53350 (whole entry, looked up): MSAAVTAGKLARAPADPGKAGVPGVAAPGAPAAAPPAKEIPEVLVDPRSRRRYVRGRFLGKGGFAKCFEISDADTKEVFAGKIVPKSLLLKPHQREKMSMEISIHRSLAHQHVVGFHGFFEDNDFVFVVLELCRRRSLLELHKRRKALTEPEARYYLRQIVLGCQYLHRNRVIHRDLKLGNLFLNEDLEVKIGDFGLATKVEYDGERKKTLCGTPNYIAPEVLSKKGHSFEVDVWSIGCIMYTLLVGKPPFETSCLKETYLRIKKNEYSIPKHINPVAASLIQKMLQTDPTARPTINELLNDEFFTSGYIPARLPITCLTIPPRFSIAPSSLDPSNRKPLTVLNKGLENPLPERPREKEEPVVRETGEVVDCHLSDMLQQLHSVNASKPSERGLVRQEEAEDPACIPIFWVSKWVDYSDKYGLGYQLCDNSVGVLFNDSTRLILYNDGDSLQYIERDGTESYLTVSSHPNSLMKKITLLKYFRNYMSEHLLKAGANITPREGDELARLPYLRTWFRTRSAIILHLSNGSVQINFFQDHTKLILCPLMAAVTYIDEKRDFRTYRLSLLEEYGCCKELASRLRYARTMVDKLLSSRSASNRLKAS
Sequence of UniProt P07333 (whole entry, looked up): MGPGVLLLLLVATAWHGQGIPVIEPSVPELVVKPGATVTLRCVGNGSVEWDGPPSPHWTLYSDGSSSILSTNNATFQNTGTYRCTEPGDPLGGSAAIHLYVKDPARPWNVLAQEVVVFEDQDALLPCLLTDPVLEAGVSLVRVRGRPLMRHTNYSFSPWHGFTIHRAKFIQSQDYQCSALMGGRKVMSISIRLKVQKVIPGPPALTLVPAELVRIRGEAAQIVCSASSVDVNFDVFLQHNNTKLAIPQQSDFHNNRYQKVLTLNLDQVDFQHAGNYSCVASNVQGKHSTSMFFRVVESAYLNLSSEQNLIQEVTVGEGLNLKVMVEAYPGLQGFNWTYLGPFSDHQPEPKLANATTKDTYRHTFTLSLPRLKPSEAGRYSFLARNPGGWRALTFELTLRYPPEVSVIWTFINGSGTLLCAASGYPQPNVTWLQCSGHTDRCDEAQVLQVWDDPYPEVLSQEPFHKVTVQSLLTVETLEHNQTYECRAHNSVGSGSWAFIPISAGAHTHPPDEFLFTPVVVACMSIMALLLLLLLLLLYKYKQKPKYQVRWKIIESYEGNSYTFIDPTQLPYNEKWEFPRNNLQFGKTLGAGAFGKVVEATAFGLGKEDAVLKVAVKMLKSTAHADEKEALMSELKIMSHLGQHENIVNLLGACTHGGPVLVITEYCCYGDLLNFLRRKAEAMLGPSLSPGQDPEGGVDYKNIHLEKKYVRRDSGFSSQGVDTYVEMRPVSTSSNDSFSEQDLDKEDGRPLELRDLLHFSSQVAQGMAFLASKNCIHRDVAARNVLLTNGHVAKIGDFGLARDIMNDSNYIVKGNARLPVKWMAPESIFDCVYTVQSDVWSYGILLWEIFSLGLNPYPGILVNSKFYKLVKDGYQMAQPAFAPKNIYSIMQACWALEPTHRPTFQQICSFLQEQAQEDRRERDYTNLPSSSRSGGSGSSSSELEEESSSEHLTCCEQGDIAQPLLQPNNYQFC
Sequence of UniProt P05813 (whole entry, looked up): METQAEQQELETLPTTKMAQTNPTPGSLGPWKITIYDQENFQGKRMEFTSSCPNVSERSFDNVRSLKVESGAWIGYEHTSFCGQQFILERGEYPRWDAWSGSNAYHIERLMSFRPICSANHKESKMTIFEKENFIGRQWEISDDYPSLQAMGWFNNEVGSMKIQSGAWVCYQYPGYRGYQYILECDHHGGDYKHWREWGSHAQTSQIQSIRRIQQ
Sequence of UniProt P37455 (whole entry, looked up): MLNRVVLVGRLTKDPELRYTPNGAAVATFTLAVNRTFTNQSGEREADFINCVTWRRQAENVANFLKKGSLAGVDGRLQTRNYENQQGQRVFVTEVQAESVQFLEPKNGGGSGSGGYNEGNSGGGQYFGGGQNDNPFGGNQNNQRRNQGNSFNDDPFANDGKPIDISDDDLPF
Sequence of UniProt O94444 (whole entry, looked up): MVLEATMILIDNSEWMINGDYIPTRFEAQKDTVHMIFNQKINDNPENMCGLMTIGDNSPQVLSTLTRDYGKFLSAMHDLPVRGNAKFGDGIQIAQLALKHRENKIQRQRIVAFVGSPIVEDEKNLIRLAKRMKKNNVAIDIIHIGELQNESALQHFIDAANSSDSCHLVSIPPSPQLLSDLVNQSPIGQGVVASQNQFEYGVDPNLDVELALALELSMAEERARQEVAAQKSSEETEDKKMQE

B1 (STAU1 A375E/R376A/L472S/S473E)
mRNA enrichment (UPF1 (Homo sapiens, UniProt Q92900); reporter mRNA in eIF4E IP, tethering, IP; in cells, not purified; baseline: λN-HA-GFP, higher = more enrichment): 4.8 fold

AAEDWCKKGDT
inhibition (peptide, human polyclonal IgM RF WEAK; concentration not given, 5 µg/mL mAb II-481 coated, together with: RF at 50% max binding concentration): 0%

CBFB/MYH11 fusion (Homo sapiens)
RUNX1 occupancy (RUNX1 (Homo sapiens, UniProt Q01196); ChIP; ME-1; 6 hours h, CSF1R promoter, together with: AI-10-49 1 µM; baseline: DMSO, higher = more occupancy): 2.2 fold

B2 (Mei5/Sae3)
dwell time of three-Dmc1 state (DMC1 (Saccharomyces cerevisiae, UniProt P25453); smFRET; without Ca2+; baseline: Dmc1 alone, higher = longer dwell): 2 fold

TIMP2 N-terminal domain S4P/I35V/S68N/V71I/H97R
Ki (MMP9 catalytic domain, no fibronectin 107-215 (Homo sapiens, UniProt P14780); fluorogenic substrate cleavage, inhibitor, enzyme inhibition assay; apparent): 0.00015 µM

CGA/LHB (Equus caballus)
EC50 (LHCGR Y558F (eel); cAMP response, agonist, HTRF; CHO-K1; 30 min, room temperature): 0.345 µg/mL

FWYEAMKALYG (designed peptide; cyclic)
IC50 (CIB1 (Homo sapiens, UniProt Q99828); competition with peptide, competitor, TR-FRET; peptide): 0.032 ± 0.01 µM

B3 (UGT1A9)
Vmax/Km (CCCOc1ccc(O)cc1; steady-state kinetics; pH 7.4, 37 °C): 10 µL/min/mg

thyrotropin-releasing hormone, pyroGlu, C-terminal amide (Gallus gallus)
EC50 (protein (Gallus gallus, UniProt O93603); MAPK/ERK signaling, SRE luciferase reporter, agonist; HEK 293): 0.0045 µM

AVVRPGSLDLP (SH3BP5 residues 340-350 (Homo sapiens))
IC50 (MAPK10 JNK3α1, pT221/pY223 (Homo sapiens, UniProt P53779-2); displacement of labelled peptide, competitor, FRET; peptide; pH 7.4, NaCl 150 mM): 1020 ± 75 µM

RCVRLHESCLGQQVPCCDPCATCYCRFFNAFCYCRKLGTAMNPCSRT (AGRP 86-132 (Homo sapiens, UniProt O00253); sequence looked up)
inverse agonist EC50 (MC4R D189S (Homo sapiens, UniProt P32245); cAMP, inverse agonist, AlphaScreen; HEK293; apparent): 0.02 µM

MAPT S262E (Homo sapiens)
EB1 comet intensity (MAPRE1 (Homo sapiens, UniProt Q15691); TIRF microscopy; 75 nM; higher = more EB1 at ends): 71 a.u.

FAN1 fragment R507A (Homo sapiens)
nuclease cleavage stimulation (PCNA (Homo sapiens, UniProt P12004); nuclease activity, activator; baseline: without PCNA, higher = more cleavage): 2 fold

LHST (CENPU residues 75-78, macrocycle 18-ring, imidazolium, pThr, C-amide; macrocycle 18-ring, imidazolium, pThr, C-amide)
IC50 (PLK1 (Homo sapiens, UniProt P53350); competition with ligand, ELISA; peptide, lysate): 0.83 µM

BicD coiled-coil domain 1 (Drosophila melanogaster)
run length (DYNC1H1/DYNC1I2/DYNC1LI2/DYNLT1/DYNLRB1/DYNLL1 (Homo sapiens); single-molecule TIRF): 2.9 µm

FGF14 fragment, N-terminal adamantanecarbonyl, Glu tert-butyl ester, C-terminal ethyl ester (Homo sapiens)
koff (FGF14 64-252 (Homo sapiens, UniProt Q92915-2); SPR): 0.0205 s⁻¹

ClpP mature (Escherichia coli, UniProt P0A6G7)
active-site modification rate (clpX (Escherichia coli, UniProt P0A6H1); rhodamine-FP modification; together with: ATPγS; baseline: ClpP alone, higher = faster modification): 3 fold

GNAO1 (Rattus norvegicus, UniProt P59215)
relative binding (RGS4 (Rattus norvegicus, UniProt P49799); pull-down; rat brain; together with: GTPγS 1 µM; baseline: no nucleotide, higher = more Goα bound): 2.8 fold

clr4 D280A/D281A (Schizosaccharomyces pombe)
relative HMTase activity (H3C1 fragment, K14 ubiquitin isopeptide; H3K9 methylation, MTase-Glo; baseline: wild-type Clr4, lower = less activity): 82%

B4 (CSF1 33-496)
koff (CSF1R Fc fusion D1-D5 20-512 (Homo sapiens, UniProt P07333); SPR; pH 7.4, NaCl 0.15 M): 0.031 s⁻¹

SOCS3/ELOB/ELOC SOCS3 24-end (Mus musculus)
IC50 increase (JAK2 JH1 836-1132, pY1007/pY1008 (Mus musculus, UniProt Q62120); JAK2 kinase inhibition; together with: STAT5b Y+8 substrate; baseline: wild-type SOCS3, higher = weaker inhibition): 10 fold

GABBR1 GABAB1b isoform, full length E309K (Homo sapiens)
cell surface expression (GABBR2 (Homo sapiens, UniProt O75899); anti-Flag M1 on intact cells; baseline: WT/WT heterodimer, higher = more surface expression): 107%

B5 (Scn2a 1080-1203)
koff (Ank3 1-981 (Rattus norvegicus, UniProt O70511); SPR; pH 7.4, 25 °C, NaCl 150 mM): 0.0021 s⁻¹

B6 (MIF4GD R202A)
relative KD (SLBP, phosphorylated, multiple sites (Homo sapiens, UniProt Q14493); SPR; pH 7.4, 25 °C, NaCl 150 mM; baseline: wild type, higher = weaker binding): > 100

NYLAWYQ
inhibition (peptide, human polyclonal IgM RF STR; concentration not given, 5 µg/mL mAb II-481 coated, together with: RF at 50% max binding concentration): 28%

Kcnt2 (Rattus norvegicus, UniProt Q6UVM4)
whole-oocyte current (Kcnt1 (Rattus norvegicus, UniProt Q9Z258-1); two-electrode voltage clamp; Xenopus oocytes; baseline: partner alone, higher = larger current): 18 fold

B7 (recO)
kcat (ssbA (Bacillus subtilis, UniProt P37455); RecA ATP hydrolysis, steady-state kinetics; together with: RecO): 0.285 s⁻¹

histone H3 peptide P38A, K36me2
demethylation (KDM2A 36-517 del365-449 (UniProt Q9Y2K7); demethylation; baseline: wild-type H3K36me2 peptide, higher = less demethylation): 7 fold reduction

Ctnnb1 (Mus musculus, UniProt Q02248)
E-cadherin coprecipitated (Cdh1 157-884 (Mus musculus, UniProt P09803); co-IP; HEK293T; 0.5 µg; baseline: control, higher = more E-cadherin): 0.27 a.u.

B8 (CRYBB1 1-234)
subunit exchange rate (CRYBA1, Alexa Fluor 488 label (Homo sapiens, UniProt P05813); FRET; pH 7.5, 37 °C, 100 mM NaCl): 0.0348 ± 0.0052 min⁻¹

POR (Homo sapiens, UniProt P16435)
CYPOR:HO-1 ratio at peak activity (HMOX1 R254K (Homo sapiens, UniProt P09601); HO-1 activity; together with: HO-1 0.05 µM): 0.5 ratio

rpn10 (Schizosaccharomyces pombe, UniProt O94444)
relative amount (mts4 (Schizosaccharomyces pombe, UniProt P87048); co-IP; baseline: mutant strain, higher = more Rpn10): 12 fold

A few entries again:
B1 (STAU1 A375E/R376A/L472S/S473E)
mRNA enrichment (UPF1 (Homo sapiens, UniProt Q92900); reporter mRNA in eIF4E IP, tethering, IP; in cells, not purified; baseline: λN-HA-GFP, higher = more enrichment): 4.8 fold

AAEDWCKKGDT
inhibition (peptide, human polyclonal IgM RF WEAK; concentration not given, 5 µg/mL mAb II-481 coated, together with: RF at 50% max binding concentration): 0%
